Published values pooled from the literature.
Numbered parts are unrelated; each lists some results of a single study. Positions count from the first letter of the parent shown.

Set 1
Target: ABI1, truncated, D143A, DHFR fusion (Arabidopsis thaliana)
Method: DHFR PCA, deep sequencing
Matrix: yeast
Setting: methotrexate growth selection, single substitutions
Added: (+)-ABA 2500 µM
Relative to: wild-type fitted maximum
Direction: higher = stronger binding
Starting sequence: PYL1, truncated, DHFR fusion (Arabidopsis thaliana); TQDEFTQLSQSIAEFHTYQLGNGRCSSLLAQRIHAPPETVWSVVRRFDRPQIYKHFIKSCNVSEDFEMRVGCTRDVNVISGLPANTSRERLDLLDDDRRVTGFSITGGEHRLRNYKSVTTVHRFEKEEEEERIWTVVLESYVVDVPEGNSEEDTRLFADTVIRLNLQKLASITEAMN
Change | relative binding score
V121D | 6.25%
I12M | 93.5%
W41Y | 82.4%
Q31M | 84.6%
L29T | 95.2%
G108C | 83.1%

Set 2
Target: Sal-like protein 4, full length isoform B (SALL4, Homo sapiens, UniProt Q9UJQ4-2, residues 1-616)
Method: universal PBM
Form: double-stranded DNA, one strand shown
Matrix: in vitro
Concentration: not given
Setting: 8-mer, flanks averaged, mean of replicates
Direction: higher = stronger binding
Sequence | E-score
CCTGCTGC | -0.179
AGCCAGCT | -0.201
CCAATACG | 0.122
TGAGAAAA | 0.159
ACTAACAG | 0.102
GGGAGCTA | -0.26
CTGGAACC | -0.295
ATTAACTA | 0.28
TACTCTAA | 0.134
ACGCTAGC | -0.173
AGAGTGCG | -0.14

Set 3
Target: CCND1, cyclin fold, Cln2 fusion (human)
Method: yeast growth competition, sequencing
Matrix: yeast
Setting: strong parent motif
Relative to: not given
Direction: higher = stronger binding
Starting sequence: CCP110 docking peptide (human); EKVKRRLDLDIDG; partner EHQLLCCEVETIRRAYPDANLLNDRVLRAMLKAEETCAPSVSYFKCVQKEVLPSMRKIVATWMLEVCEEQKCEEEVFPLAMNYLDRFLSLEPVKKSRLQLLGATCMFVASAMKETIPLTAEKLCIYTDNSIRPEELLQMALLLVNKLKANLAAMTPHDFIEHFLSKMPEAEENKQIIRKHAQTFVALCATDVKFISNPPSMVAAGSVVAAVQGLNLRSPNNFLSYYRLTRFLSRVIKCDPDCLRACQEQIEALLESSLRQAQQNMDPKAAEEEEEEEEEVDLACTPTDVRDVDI
Change | normalised enrichment score
EKVKKRLDFDIDG [R5K L9F] | 0.704
EKAKRRLDLDIDG [V3A] | 0.749
EKVKRRLDADIDG [L9A] | 0.0252
EKVKRRLDLDIAG [D12A] | 0.684
EKVKRRADLDIDG [L7A] | -0.218
AKVKRRLDLDIDG [E1A] | 0.517
EKVARRLDLDIDG [K4A] | 0.673

Single results of other studies
Substance | target | assay | system | setting | how to read | endpoint | result
PhoQ, residues 284 288 289 292 302 303 SLGVVW | PhoP, residues 12 14 15 18 19 NFCKL (Escherichia coli, UniProt P23836) | Sort-seq, refers to: YFP reporter | E. coli | PhoQ-PhoP variant library, added: 10 µM Mg2+ | relative to: high Mg2+ state, higher = stronger signaling | fold induction | 15.9

Repeated from above (set 2):
Sequence | E-score
TGAGAAAA | 0.159
CCAATACG | 0.122
ATTAACTA | 0.28
